# Experimental data gathered from unrelated publications.
# Parts stem from different laboratories: compare values within a part only. Substitutions count along the parent as printed.

# Block 1 — technique: RNA Bind-n-Seq; form: RNA; sample: in vitro; tested at: not given; relative to: input RNA pool; reading: higher = stronger binding
# Target: RING finger protein unkempt homolog, zinc fingers 1-6, GST-SBP tag (UNK, Homo sapiens, UniProt Q9C0B0, residues 30-357)
# Setting: RNA with constant flanks, human-mouse chimeric sites, ends assumed
# Residues (chain): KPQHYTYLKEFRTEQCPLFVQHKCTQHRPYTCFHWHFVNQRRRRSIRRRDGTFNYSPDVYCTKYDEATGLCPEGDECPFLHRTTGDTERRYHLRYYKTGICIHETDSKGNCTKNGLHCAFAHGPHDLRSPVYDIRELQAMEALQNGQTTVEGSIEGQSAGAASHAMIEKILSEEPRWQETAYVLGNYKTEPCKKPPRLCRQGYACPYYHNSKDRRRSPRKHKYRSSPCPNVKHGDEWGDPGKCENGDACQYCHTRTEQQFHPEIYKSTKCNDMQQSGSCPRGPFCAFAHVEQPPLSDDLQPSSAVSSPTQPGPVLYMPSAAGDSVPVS
Strand,bound/input enrichment [ratio]
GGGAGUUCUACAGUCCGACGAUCUUACUUUUGACUCCCUGGGUCAAGUUCCUGUGGGAAUCAUACAGGCAGUGUUUGGACCUUCUUCGAAACAAUUCUAGAGUAGAGCGCCUGUACCAUGAUAUCGCCCAACAAGCUUUCAAACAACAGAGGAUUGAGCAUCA,0.157
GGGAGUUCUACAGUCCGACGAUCCAGGGCAUCAUCUCUCGAGCUGUUAAACACCUGUUCAAGAGUAUUGAAGAAAAAAAAACCUCAGCGAUUAAAAACGGGCUGCCCCCUCCUGAAUUCAAAGUGAAUGCCCAGUUCCUAGAGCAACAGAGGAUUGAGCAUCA,0.574
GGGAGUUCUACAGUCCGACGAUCGAAUCCUCCCGUGCAAAAUUUUGCAACACCAAGCUCACAGCAGCAGCAUCUUAGUCACAGUAGGGUAGUUUUGGGGCUCUGUGGCCAGGGUUUUAUUCAUGUGCAGGUUUGGAAAAUGUACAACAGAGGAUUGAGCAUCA,2.43
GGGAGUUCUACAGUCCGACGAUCCUUAAUGUUAAUAUUUUUGAAUAAAUGAAGCUAAAAUUUUGCUUUCUGGUACAACACGCAUUAAUAAAAGGUUAAGUAAGUUUUGUUACUGAAGUACUAUUUAACAUCUCAGAAAAAAACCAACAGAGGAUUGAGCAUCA,0.308
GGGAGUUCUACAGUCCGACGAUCGAGCGUCUUGCCCGCACUGGGAUCAUCGUGACCACGAGUGAGGCUGUUCUGCUUCAGCUGGUGGCUGACAAAGACCACCCGAAGUUCAAGGAAAUUCAGAACCUAAUUAAGGCGAGUGCCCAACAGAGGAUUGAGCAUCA,0.0862
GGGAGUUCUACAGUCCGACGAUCGAGUCGAGCAAACUUGAAACAAUUCGUUAUCUUGCAGCCUCAGUGUUCACUUGCUUGUGGCAAUAGCUGGGGUUUUAUAGGUUCUGGAAGGAGAACUGACGAUGAUGUCCUGCUGUGUGCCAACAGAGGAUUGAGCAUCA,0.109
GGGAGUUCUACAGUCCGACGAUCCAGCCUCAGAGCCCAGACUUCCUGGAUAUUACCAACCCUAAAGCGGUAUUAGAAAAUGCACUUAGGAACUUCGCCUGUCUGACGACUGGAGAUGUGAUUGCCAUCAACUACAAUGAGAAGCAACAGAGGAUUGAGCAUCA,0.686
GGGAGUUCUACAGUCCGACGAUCGAAUCCUACUCAGGCGGAUUUUGCAACACCAAGCUCACAGCAGCAGCAUCUUAGUCACAGUAGGGUAGUUUUGGGGCUCUGUGGCCAGGGUUUUAUUCAUGUGCAGGUUUGGAAAAUGUACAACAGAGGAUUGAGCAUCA,1.54

# Block 2 — target: CCNF, cyclin fold, Cln2 fusion (human); technique: yeast growth competition, sequencing; sample: yeast; setting: strong parent motif; relative to: not given; reading: higher = stronger binding
# Starting sequence: SCAPER docking peptide (human); SNARRSLNFGGST
Substitution,normalised enrichment score
SGARRSLNFGGST [N2G],7.67
SNARRSLNFSGST [G10S],6.96
SNARYSLNFGGST [R5Y],0.106
ANARRSLNFGGST [S1A],8.01
SNARRMLNFGGST [S6M],7.86
SNARRSLNEGGST [F9E],-0.296
SNAYRSLNFGGST [R4Y],3.67
SNARRSLNFGPST [G11P],8.02
SNARRSLNFGGSD [T13D],8.43
SNARRSNNFGGST [L7N],0.708

# Block 3 — technique: Sort-seq; item: YFP reporter; sample: E. coli; setting: PhoQ-PhoP variant library; with: 10 µM Mg2+; relative to: high Mg2+ state; reading: higher = stronger signaling
# Substance: PhoQ, residues 284 288 289 292 302 303 AAQSYM
target,fold induction
"PhoP, residues 12 14 15 18 19 LFHKL (Escherichia coli, UniProt P23836)",7.07
"PhoP, residues 12 14 15 18 19 QQAYL (Escherichia coli, UniProt P23836)",20.7
"PhoP, residues 12 14 15 18 19 GMGLL (Escherichia coli, UniProt P23836)",0.817

# Block 4 — technique: protein-binding microarray; form: double-stranded DNA, one strand shown; sample: in vitro; tested at: 250 nM; setting: 60-bp whole probe; with: salmon DNA 0.4 mg/ml; relative to: random background probes; reading: higher = stronger binding; constant ends, left off below: GCCTAGCAC … GTCTTGATTCGCTTGACGCTGCTG
# Target: Interferon regulatory factor 5, full length, phosphomimetic (IRF5, Homo sapiens, UniProt Q13568-2, residues 1-514, K96S/S451D/S453D/S456D/S462D)
Strand,log fluorescence [z-score]
GACAAACTGGGGACTGGAGACGTGCTA,-0.39
GACGATATCGGACTGGAGACGTGCTAG,0.827
TCATACATTTATATCTTACTGTGCTAG,0.748
ACGTTTTTCATTTTTTTTTTGTGCTAG,2.24
TCATACTTGTGTCTAGAACTGTGCTAG,0.437
CTGGCTATTTTATATGCTATGGTGCTA,-0.188
AACGATTTCAGTCTCGAGACGTGCTAG,1.67
